Experimental data from different studies.
Numbered parts are unrelated; each lists some results of a single study. Substitutions count along the parent as printed.

Set 1
Target: RNA binding protein fox-1 homolog 2, RRM domain, GST-SBP tag (RBFOX2, Homo sapiens, UniProt O43251-10, residues 100-194)
Method: RNA Bind-n-Seq
Molecule type: RNA
Sample: in vitro
Tested at: 365 nM
Notes: natural RNA segment, single round, ends assumed
Relative to: no-protein control
Direction: higher = stronger binding
Endpoint: RBNS enrichment (R)
Shared flanks, not repeated: GGGAGUUCUACAGUCCGACGAUC … UGGAAUUCUCGGGUGCCAA
Construct (chain): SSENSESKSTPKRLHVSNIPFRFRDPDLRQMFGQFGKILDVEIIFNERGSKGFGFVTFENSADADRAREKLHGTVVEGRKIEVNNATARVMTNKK
GGGCGGUGGUGGCUCACGCCUUUAAUCCCAGCACUCGGGAGGCAGAGGCAGGUGGAUUUCUAAGUUCGAGGCCAGCCUGGUCUACAGAGUGAGUUCCAGGACAGCCAGGG: 0.244
UCACAAACUCUGCCAAAUUUGUGGAACUAUGAAAUGUAUUAUUUGUAGACAUAAAGACUUGAUUGCUUUCCAGUUUAAUGAAAGCUUAAAUGUCCCUGCGAACCCACAAU: 0.6
ACUGUCUGGAAGACAUGUCCCCAUGGCUGUGGGGCCGCUGCUUCUGUUUAAAUAAAAGUGGCCUGGAGCUGGCGUUUGUCGUUUCUUGCUUGGGGGACCAAAAUGUGGAG: 0.591
UUUCUAGUUCAAGCCCACAGCCAGCAACAAGCAACAAAGUGUCUUAGAAUAGGACUGGUUUUGUUUACCUCACCUAUGAGGUUGGCAGUAGCUCCCAACCCAUUUCACAA: 0.252
CUCCCCCACAAGCCUUUAAUUGAGAGCCGCUCUUUAUAAGUGUUCGCUUGUGCAAAAGGGAAUAGUGCCGUGGAAGUGUGUGUCCAUGGCAGUUUGGACAGGGGUGACUG: 0.491
UUUUUGGCCCCUAUUGAGGAUGAAAUGUCUCUCAUUUAGUAUAAACAGUAACAGCCCACGGCAGUGUGACCUUCUAAACUUCAGCGAAGUCACUGGUGGCUUUAAAUAAC: 0.45
CAUCCUGAAGAUUAUUAAAAGGAAAAGAUGCUGAUUGGUACAUAAAUCUUUUACAUGGCCUUGGUCUAGAGGAGGCAGGCUUUUAGAAUCAUGUUUUGUUAAUCCGCUUC: 1.19
CCAGCCACUCUCGGGCCCCACUCCCACAUCAUCUCAGAAACCCUUCAGCCCUCGCAACUCGCCCCUCCGGGCCCCCCCACCAGGCACAACCAUCCCCGGGGCCAGCCGGG: 1.13
ACAAGAGAUCCUUUUCUCUUUCCAAACAGCUUUGCACAAUCUAGAAAUUCAGUGGGUUUUUUUUUUUUUUUCAAAUAAAAAACUAGUUAGAUAACUUUACAAAUUAGGUC: 0.761
UAGAAGCUGCAAACCUCUUCUCAGCCUCCUUCAGGCACCUCCUGUUUUCAUAAGCACCAUGAAGAAUGGUGUUUCCUAAAUGAAAAGUUCAGAUACUGCUGGUAAAGAAA: 0.284
UUACUGCAUUUCUGCUCUUGGUUCUAGCUGUGUGAACUCUAACUUCUUUCCUGAUGGGGAUCUCUGUGUUCUUGAGCUCUGAUUAUGUAAUGAAGGCUGACACAGUCCCC: 0.429
CUGGCUUGAGGAUUAGCUAAAGGUCUGUGUUUUCACAGCAGGAGUUAAUGUGCAGAGUUAACUGAACAGUGAUAUUCCAGUCCUCUUUUUUUAAGCUUCGGUGGCAGCUC: 0.36

Set 2
Target: ABI1, truncated, D143A, DHFR fusion (Arabidopsis thaliana)
Method: DHFR PCA, deep sequencing
Sample: yeast
Notes: methotrexate growth selection, single substitutions
Added: (+)-ABA 58 µM
Relative to: wild-type fitted maximum
Direction: higher = stronger binding
Endpoint: relative binding score
Starting sequence: PYL1, truncated, DHFR fusion (Arabidopsis thaliana); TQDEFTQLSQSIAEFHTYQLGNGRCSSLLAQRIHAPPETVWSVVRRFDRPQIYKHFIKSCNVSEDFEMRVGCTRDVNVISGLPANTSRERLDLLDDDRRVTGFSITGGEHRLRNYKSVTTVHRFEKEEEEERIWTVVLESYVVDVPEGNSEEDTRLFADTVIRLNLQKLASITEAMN; partner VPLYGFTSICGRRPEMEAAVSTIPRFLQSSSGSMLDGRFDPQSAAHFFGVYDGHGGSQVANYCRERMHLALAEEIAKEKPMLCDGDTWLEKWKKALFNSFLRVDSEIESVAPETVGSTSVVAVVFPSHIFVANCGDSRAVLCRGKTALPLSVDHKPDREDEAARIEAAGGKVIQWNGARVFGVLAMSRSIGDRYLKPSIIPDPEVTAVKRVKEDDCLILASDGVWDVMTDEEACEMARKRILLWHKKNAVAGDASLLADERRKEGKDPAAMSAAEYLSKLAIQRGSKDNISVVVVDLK
N85W: 84.4%
T1I: 87.8%
D153L: 1.84%
E4N: 75.8%
Q167F: 61.6%
E4L: 88.7%
L169Q: -4.68%
R99K: 100%
K168A: 75.6%
R88G: 13.9%
R74F: -1.16%

Set 3
Target: Ras GTPase-activating protein-binding protein 1, full length (G3BP1, Homo sapiens, UniProt Q13283)
Sequence of UniProt Q13283 (whole entry, looked up): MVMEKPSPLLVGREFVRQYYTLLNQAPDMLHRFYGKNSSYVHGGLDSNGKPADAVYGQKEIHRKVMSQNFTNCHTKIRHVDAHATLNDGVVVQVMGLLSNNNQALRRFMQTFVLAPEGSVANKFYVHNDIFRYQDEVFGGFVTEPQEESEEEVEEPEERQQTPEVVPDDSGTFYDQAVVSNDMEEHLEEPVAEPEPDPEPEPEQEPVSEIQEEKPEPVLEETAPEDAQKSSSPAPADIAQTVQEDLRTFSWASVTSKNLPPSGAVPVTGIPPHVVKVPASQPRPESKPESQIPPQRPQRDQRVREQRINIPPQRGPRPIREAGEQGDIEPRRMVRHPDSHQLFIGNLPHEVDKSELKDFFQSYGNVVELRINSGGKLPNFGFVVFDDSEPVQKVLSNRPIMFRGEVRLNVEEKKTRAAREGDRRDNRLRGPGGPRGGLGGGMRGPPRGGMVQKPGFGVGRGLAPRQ
Method: RNA Bind-n-Seq
Molecule type: RNA
Sample: in vitro
Tested at: 200 nM
Notes: whole 134-nt RNA, ends assumed
Added: 150 mM KCl
Relative to: input library
Direction: higher = stronger binding
Endpoint: log2 enrichment
Shared flanks, not repeated: GGGAGUUCUACAGUCCGACGAUC … UGGAAUUCUCGGGUGUCAAGG
ACCAUGCAGGUGGGCAUCUUUGGGAAGUGGGGCAAGGGGGGGAUAGGGAGGGGGGUAACACAAAGGGAACAGGUGGUCCCAGGUCGUUUC: 1.23
CACAGACAACACGCACCCACACAGACACAGAGGGAAGGGGUUGGGAUGGGGACAAAGUGCACAGCAGGGCGGGGUAGGACCCCAGCCCCU: 1.78
CAAGUCCUGUGCUACACAUCGUAUGUACCGAAUCGGGUUUUGGUUUUGGUUUUGGAAAGUAUUAUGUUACGCCGUUCGGAUCUGCACUUC: -1.16
UAUUGGACACAGUGCCCCGCUGAACAGCAGCUGUUCCCAGCGCCAGAGGACCCCACAGCCACAGUAGGAGCUUUGCGACCCCUACGCAAC: -0.96
GCAGGAAGUAAAAACAAAUGGAAAUGCUUCGGAUAGUGGCAGGGGUGGGGCUUGCUAAGGAAAGGGUGGGAUGGGAGUGGGUAAAGAGUU: 0.911
AGUCCUGUGCUACACAUCGUAUGUACCGAAUCGGGGAAAGGGGUUUUUGGGGAGGGGAAAGUAUUAUGUUACGCCGUUCGGAUCUGCACU: 0.784
ACCAUGCAGGUGGGCAUCUUUGGGAAGUGGGGCAAGGGGGGGAUAGGGAGGGGGGUAACACUUUGGGAACAGAAAGUCCCAGGUCGUUUC: 0.929
ACCAUGCAGGUGGGCAUCUUUGGGAAGUGGGGCAAGGGGGGGAUAGGGAGGGGGCUAACACUUUGGGAACAGGUGGUCCCAGGUCGUUUC: 1.37
UCCUGUGCUACACAUCGUAUGUACCGAAUCGGGAAAAAAGGGAAAAAAGGAAAAAAGGGGAAAGUAUUAUGUUACGCCGUUCGGAUCUGC: -0.501
UCCUGUGCUACACAUCGUAUGUACCGAAUCGGGGUUUUUGGGGAAAAAAAGGGGAGGGGAAAGUAUUAUGUUACGCCGUUCGGAUCUGCA: 0.71
CACAGACAACACGCACCCACACAGACACAGAGGGAAGGGGUUGGGAUAGGGACAGGGUGCACAGCAGGGCGGGGUAGGACCCCAGCCCCU: 1.76
CAAGUCCUGUGCUACACAUCGUAUGUACCGAAUCGGGAAAGGGUUUGGGAAAGGGAAAGUAUUAUGUUACGCCGUUCGGAUCUGCACUUC: 0.612
ACCAUGCAGGUGUGCAUCUUUGGGAAGUGGGGCAAGGGGGGGAUAGGGAGGGGGGUAACACUUUGGGAACAGGUGGUCCCAGGUCGUUUC: 0.931
GCAGGAAGUAAAAACAAAUGGAAAUGCUUCGGAUAGUGGCAGGGGUGGGGGUUGCUAAGGAAAGGGUGGGAUAGGAGUGGGUAAAGAGUU: 0.823

Set 4
Target: CCND3, cyclin fold, Cln2 fusion (human)
Method: yeast growth competition, sequencing
Sample: yeast
Notes: weak parent motif
Relative to: not given
Direction: higher = stronger binding
Endpoint: normalised enrichment score
Starting sequence: ORC1 docking peptide (human); PRARKRLELGNLG
R4W: 0.128
G13I: 0.0475
G13R: 0.072
E8N: 0.143
P1A: 0.187
G13S: 0.201
N11G: 0.197
E8I: 0.078
L9I: 0.173
R2P: 0.123
R2V: 0.124
L7C: 0.0862
R6K: 0.0967
K5P: 0.18
N11M: 0.22
K5A: 0.124
N11A: 0.0895
G13W: 0.0302
K5Q: 0.0899
L7E: 0.0924
K5A L7A: 0.22
E8P: 0.196
L9R: 0.195
G10H: 0.149
E8V: 0.183

Excerpt of the above (set 4):
N11A: 0.0895
G13W: 0.0302
K5Q: 0.0899
L7E: 0.0924
K5A L7A: 0.22
E8P: 0.196
L9R: 0.195
G10H: 0.149
